Results of several laboratories.
Protocols differ between the studies behind these lines. pIC50: −log10 of the molar value. ≈ marks a conversion by molar mass, not a printed value.

SMILES	organism	assay	test system	conditions	scale	measurement	value
COc1cc(OC)c2c(c1)C(=O)c1cc3oc(=O)cc(C)c3c(O)c1C2=O	Klebsiella aerogenes			100 µg/disc		inhibition zone diameter	< 8 mm
CSc1ccccc1NC(=O)c1[nH]c2cc(C)sc2c1CN1CCOCC1	Giardia duodenalis	parasite growth		48 h		pIC50	6.03
CCC(NC(=O)CN1C(=O)N/C(=C\c2ccc(C)cc2)C1=O)C(=O)OC (centres unmarked)	Leishmania major	parasite growth		24 h, intracellular, amastigote		pIC50	5.10
CC(C)=CCc1c(O)ccc2c1O[C@H]1c3cc4c(cc3OC[C@@H]21)OC(C)(C)C=C4	Enterococcus faecalis		ATCC 29212	concentration not given		antibacterial activity	inactive
Cc1cc(O)cc2c1C(=O)c1c(cc3oc(=O)cc(-c4ccc(Cl)cc4)c3c1O)C2=O	Klebsiella aerogenes	microbial growth, disc diffusion		100 µg/disc		inhibition zone	32 mm
COC(=O)CCC(NC(=O)C1OC(OC2C(OC3CCC4(C)C(CCC5(C)C4C(=O)C=C4C6CC(C)(C(=O)NC(CCC(=O)OC)C(=O)OC)CCC6(C)CCC45C)C3(C)C)OC(C(=O)NC(CCC(=O)OC)C(=O)OC)C(O)C2O)C(O)C(O)C1O)C(=O)OC (centres unmarked)	Epstein-Barr virus	viral replication, qPCR of genome copies	Raji	concentration not given		antiviral activity	inhibited
CCC1(C)CCN(Cc2cc(N(C)C)c3c(c2O)C(=O)C2=C(O)[C@]4(O)C(=O)C(C(N)=O)=C(O)[C@@H](N(C)C)[C@@H]4C[C@@H]2C3)CC1	Enterococcus faecalis		JH2-2(pMV158), Tet L efflux			MIC	1 µg/mL (≈ 1.68 µM)
Cc1cc(O)c2c(c1)C(=O)c1cc3oc(=O)cc(-c4ccc(O)cc4)c3c(O)c1C2=O	Klebsiella aerogenes	microbial growth, disc diffusion		100 µg/disc		inhibition zone	8 mm
CC(=O)[O-].O.O.[O-]c1ccc(Br)cc1C=NCCN1CCOCC1.[Zn+2]	Mucor indicus			20 µL of 100 µM per disc		inhibition zone diameter	29 mm
Cc1cc2[nH]c(C(=O)NC(C)c3ccccc3)c(CN3CCOCC3)c2s1 (centres unmarked)	Giardia duodenalis	parasite growth		48 h		pIC50	< 5.00
CCOC(=O)C(CC)NC(=O)CN1C(=O)S/C(=C\c2ccc(OC)cc2)C1=O (centres unmarked)	Leishmania donovani	parasite growth		24 h, intracellular, amastigote		pIC50	< 5.00
NCC(=O)N[C@H](Cc1ccccc1)C(=O)N[C@@H](Cc1ccccc1)C(=O)N[C@@H](CC(=O)O)C(=O)O	Aplysia	evoked spikes, electrophysiology	isolated pleural-pedal ganglia	concentration not given		neuron excitability	increased
CC1(CCCCCCCCCCCCOCCCOP(=O)(O)CO[C@H](CO)Cn2ccc(N)nc2=O)COC1	human alphaherpesvirus 3		HFF, Ellen		baseline: CC50 over EC50	selectivity index	72
NCC(=O)N[C@@H](Cc1ccccc1)C(=O)N[C@@H](Cc1ccccc1)C(N)=O	Aplysia	feeding network activity, electrophysiology	buccal and cerebral ganglia	concentration not given		activity	inactive
CCCCCCCCCc1nc2cc(Cl)ccc2c(=O)n1CCCN	Pseudomonas aeruginosa, Staphylococcus aureus		mixed biofilm	concentration not given, with: tobramycin after pretreatment		biofilm remaining	< 5%
CCOC(=O)C(C)NC(=O)CN1C(=O)S/C(=C\c2ccc(F)cc2)C1=O (centres unmarked)	Leishmania major	parasite growth		72 h, intracellular, amastigote		pIC50	< 5.00
O=C(CCC(=O)[c-]1cccc1)NCCN(CC(=O)Nc1ccc(I)cc1)C(=O)CCc1cn(Cc2ccccc2)nn1.[C-]#[O+].[C-]#[O+].[C-]#[O+].[Mn+]	Bacillus subtilis, Staphylococcus aureus	MIC	including MRSA	up to 512 µg/mL		antibacterial activity	inactive
CSc1ccc(CNC(=O)c2[nH]c3cc(C)sc3c2CN(C)C)cc1	Giardia duodenalis	parasite growth		48 h		pIC50	< 5.00

SMILES	organism	assay	test system	conditions	scale	measurement	value
CC1(CCCCCCCCCCCCCCOCCCOP(=O)(O)CO[C@H](CO)Cn2ccc(N)nc2=O)COC1	human alphaherpesvirus 2		HFF, G		baseline: CC50 over EC50	selectivity index	> 172
Cc1cc2[nH]c(C(=O)NC(C)c3cccnc3)c(CN3CCCCC3)c2s1 (centres unmarked)	Giardia duodenalis	parasite growth		48 h		pIC50	< 5.00
CCOC(=O)C(CC)NC(=O)CN1C(=O)S/C(=C\c2ccc(C)cc2)C1=O (centres unmarked)	Leishmania major	parasite growth		72 h, intracellular, amastigote		pIC50	5.29
Nc1ncnc2c1ccn2[C@H]1C[C@H](O)[C@@H](CO)O1	animal trypanosomes	parasite growth		concentration not given, panel of strains		activity	inactive
Cc1cc(O)c2c(c1)C(=O)c1cc3oc(=O)cc(C)c3c(O)c1C2=O	Klebsiella aerogenes	microbial growth, disc diffusion		100 µg/disc		inhibition zone	12 mm
CC(=O)NCc1cc(N(C)C)c2c(c1O)C(=O)C1=C(O)[C@]3(O)C(=O)C(C(N)=O)=C(O)[C@@H](N(C)C)[C@@H]3C[C@@H]1C2	Enterococcus faecalis		JH2-2(pMV158), Tet L efflux			MIC	4 µg/mL (≈ 7.57 µM)
CC/C(=C\c1ccc(OCC(=O)NC(C(=O)N2CCSCC2)c2ccccc2)cc1)[N+](=O)[O-] (centres unmarked)	Leishmania donovani		macrophages, intracellular amastigotes	3.125 µM, 72 h		inhibition	63.2%
Oc1ccccc1/C=N/NC(=S)Nc1cc(C(F)(F)F)cc(C(F)(F)F)c1	Nakaseomyces glabratus		ATCC 28226	2 µg/mL		biofilm formation inhibition	~50%
CCOC(=O)C(NC(=O)CN1C(=O)N/C(=C\c2ccc3c(c2)OCO3)C1=O)C(C)C (centres unmarked)	Leishmania major	parasite growth, resazurin		promastigote		pIC50	< 4.00
CCCCCCCCCCCCCCCCCCCCCCCCCCCCCCOC(=O)/C=C/c1ccc(O)cc1	Nakaseomyces glabratus		clinical isolate		baseline: compound over fluconazole	MIC ratio	2.5
CCOC(=O)CNC(=O)CN1C(=O)S/C(=C\c2ccc(OC)c(O)c2)C1=O	Leishmania major	parasite growth		72 h, intracellular, amastigote		pIC50	5.00
CSc1ccc(NC(=O)c2[nH]c3cc(C)sc3c2CN(C)C)cc1	Giardia duodenalis	parasite growth		48 h		pIC50	< 5.00
CC(C)C[C@H](NC(=O)[C@H](Cc1ccc(O)cc1)NC(=O)[C@@H]1CCCN1C(=O)[C@H](CCCNC(=N)N)NC(=O)[C@@H]1CCCN1C(=O)[C@H](CCCCN)NC(=O)[C@H](CC(=O)O)NC(=O)[C@@H]1CCCN1C(=O)[C@H](CCCNC(=N)N)NC(=O)C1(N)CCCCC1)C(=O)N1CCC[C@H]1C(=O)N[C@@H](CCCNC(=N)N)C(=O)N1CCC[C@H]1C(=O)N[C@@H](CCCNC(=N)N)C(=O)N1CCC[C@H]1C(=O)N1CCC[C@H]1C(=O)N[C@@H](CCCNC(=N)N)C(=O)N1CCC[C@H]1C(=O)N[C@H](C(=O)N[C@@H](CCCNC(=N)N)C(=O)N[C@@H](CSc1c(F)c(F)c(SC[C@H](NC(=O)[C@H](CCCNC(=N)N)NC(=O)[C@@H](NC(=O)[C@@H]2CCCN2C(=O)[C@H](CCCNC(=N)N)NC(=O)[C@@H]2CCCN2C(=O)[C@@H]2CCCN2C(=O)[C@H](CCCNC(=N)N)NC(=O)[C@@H]2CCCN2C(=O)[C@H](CCCNC(=N)N)NC(=O)[C@@H]2CCCN2C(=O)[C@H](CC(C)C)NC(=O)[C@H](Cc2ccc(O)cc2)NC(=O)[C@@H]2CCCN2C(=O)[C@H](CCCNC(=N)N)NC(=O)[C@@H]2CCCN2C(=O)[C@H](CCCCN)NC(=O)[C@H](CC(=O)O)NC(=O)[C@@H]2CCCN2C(=O)[C@H](CCCNC(=N)N)NC(=O)C2(N)CCCCC2)C(C)C)C(=O)NN)c(F)c1F)C(=O)NN)C(C)C	Acinetobacter baumannii	inner membrane permeabilization, PI/SYTO flow cytometry		1 × MBC		PI-positive bacteria	50 to 60%
CC(C)(C)N/C=C/c1ccccc1	Schistosoma haematobium	motility	adults	up to 40 µM, 24 h		activity	inactive
COc1ccc(NC(=O)c2[nH]c3cc(C)sc3c2CN2CCOCC2)cc1	Giardia duodenalis	parasite growth		48 h		pIC50	< 5.00
COc1ccc(-c2nc(-c3ccccc3OC)[nH]c2-c2ccc(OC)cc2)cc1	Schistosoma mansoni		female worms	25 µM		worm killing	0%
Cc1ccc(S(=O)(=O)Nn2c3c(cc(-c4nc5ccccc5s4)c2=O)CCCCCC3)cc1	human adenovirus 7	plaque	HEp-2		baseline: CC50 over IC50	selectivity index	2.79
